Measured values collected from several papers.
Numbered parts are unrelated; each lists some results of a single study.
UniProt Q9HBH9, sequence (whole entry, looked up): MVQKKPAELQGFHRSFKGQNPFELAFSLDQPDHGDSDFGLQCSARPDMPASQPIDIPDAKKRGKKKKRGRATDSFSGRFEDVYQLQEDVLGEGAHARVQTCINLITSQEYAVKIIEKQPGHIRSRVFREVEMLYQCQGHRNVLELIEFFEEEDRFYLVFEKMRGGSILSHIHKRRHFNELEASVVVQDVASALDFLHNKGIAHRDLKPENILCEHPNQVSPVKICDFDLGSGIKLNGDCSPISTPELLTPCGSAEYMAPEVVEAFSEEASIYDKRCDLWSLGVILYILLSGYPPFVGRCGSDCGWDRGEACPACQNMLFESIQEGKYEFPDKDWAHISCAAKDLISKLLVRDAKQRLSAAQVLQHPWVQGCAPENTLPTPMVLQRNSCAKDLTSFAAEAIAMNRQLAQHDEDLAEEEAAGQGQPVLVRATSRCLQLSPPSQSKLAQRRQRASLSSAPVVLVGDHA
UniProt Q15831, sequence (whole entry, looked up): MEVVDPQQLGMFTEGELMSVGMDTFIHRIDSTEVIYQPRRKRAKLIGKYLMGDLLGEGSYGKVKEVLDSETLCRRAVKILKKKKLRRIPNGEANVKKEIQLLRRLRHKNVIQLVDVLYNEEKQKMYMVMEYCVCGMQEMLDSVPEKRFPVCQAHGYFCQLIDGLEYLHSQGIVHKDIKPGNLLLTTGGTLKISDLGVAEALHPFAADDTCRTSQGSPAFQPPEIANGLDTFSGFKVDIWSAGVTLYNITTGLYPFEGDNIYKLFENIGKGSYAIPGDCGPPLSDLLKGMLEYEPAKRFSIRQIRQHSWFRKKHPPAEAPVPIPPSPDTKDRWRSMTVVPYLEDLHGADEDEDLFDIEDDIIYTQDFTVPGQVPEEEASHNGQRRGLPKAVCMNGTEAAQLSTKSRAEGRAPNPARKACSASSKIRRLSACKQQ
UniProt P04629, sequence (whole entry, looked up): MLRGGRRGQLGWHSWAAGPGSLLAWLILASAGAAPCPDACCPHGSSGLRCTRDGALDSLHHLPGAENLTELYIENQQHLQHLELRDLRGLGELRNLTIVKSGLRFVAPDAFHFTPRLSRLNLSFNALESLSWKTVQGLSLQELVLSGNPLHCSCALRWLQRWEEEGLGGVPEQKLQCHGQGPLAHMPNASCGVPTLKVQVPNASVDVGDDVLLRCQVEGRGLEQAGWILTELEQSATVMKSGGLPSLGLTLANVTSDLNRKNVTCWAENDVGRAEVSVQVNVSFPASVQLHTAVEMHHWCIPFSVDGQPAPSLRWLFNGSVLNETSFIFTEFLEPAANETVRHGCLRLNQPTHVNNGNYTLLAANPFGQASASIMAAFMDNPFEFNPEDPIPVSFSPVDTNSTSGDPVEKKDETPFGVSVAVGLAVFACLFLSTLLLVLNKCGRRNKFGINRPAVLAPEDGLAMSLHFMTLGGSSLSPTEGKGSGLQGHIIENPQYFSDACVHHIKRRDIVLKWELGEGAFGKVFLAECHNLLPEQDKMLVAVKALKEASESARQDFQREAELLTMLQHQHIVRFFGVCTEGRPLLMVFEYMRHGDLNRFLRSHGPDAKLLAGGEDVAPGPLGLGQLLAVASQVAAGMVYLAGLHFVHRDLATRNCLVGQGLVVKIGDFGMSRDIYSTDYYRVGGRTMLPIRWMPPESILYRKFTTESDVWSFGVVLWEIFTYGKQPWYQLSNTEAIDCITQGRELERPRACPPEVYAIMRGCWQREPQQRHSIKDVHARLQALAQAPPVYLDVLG
UniProt P42680, sequence (whole entry, looked up): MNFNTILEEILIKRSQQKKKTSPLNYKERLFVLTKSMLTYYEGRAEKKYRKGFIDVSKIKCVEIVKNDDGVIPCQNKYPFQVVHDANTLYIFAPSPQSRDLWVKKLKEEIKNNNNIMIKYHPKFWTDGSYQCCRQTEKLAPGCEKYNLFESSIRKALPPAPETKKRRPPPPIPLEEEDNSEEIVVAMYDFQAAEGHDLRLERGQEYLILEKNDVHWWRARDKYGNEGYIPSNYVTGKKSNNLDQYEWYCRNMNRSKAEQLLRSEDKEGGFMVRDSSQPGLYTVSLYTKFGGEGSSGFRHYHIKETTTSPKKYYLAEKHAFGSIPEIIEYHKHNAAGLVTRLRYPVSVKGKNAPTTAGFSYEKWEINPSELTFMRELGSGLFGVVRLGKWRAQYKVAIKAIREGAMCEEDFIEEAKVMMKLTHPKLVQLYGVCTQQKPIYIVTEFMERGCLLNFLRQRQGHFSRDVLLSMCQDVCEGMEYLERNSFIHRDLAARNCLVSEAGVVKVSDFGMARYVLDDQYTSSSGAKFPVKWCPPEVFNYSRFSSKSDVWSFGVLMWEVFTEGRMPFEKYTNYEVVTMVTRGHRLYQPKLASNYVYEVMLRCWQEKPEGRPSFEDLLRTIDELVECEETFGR
UniProt P57058, sequence (whole entry, looked up): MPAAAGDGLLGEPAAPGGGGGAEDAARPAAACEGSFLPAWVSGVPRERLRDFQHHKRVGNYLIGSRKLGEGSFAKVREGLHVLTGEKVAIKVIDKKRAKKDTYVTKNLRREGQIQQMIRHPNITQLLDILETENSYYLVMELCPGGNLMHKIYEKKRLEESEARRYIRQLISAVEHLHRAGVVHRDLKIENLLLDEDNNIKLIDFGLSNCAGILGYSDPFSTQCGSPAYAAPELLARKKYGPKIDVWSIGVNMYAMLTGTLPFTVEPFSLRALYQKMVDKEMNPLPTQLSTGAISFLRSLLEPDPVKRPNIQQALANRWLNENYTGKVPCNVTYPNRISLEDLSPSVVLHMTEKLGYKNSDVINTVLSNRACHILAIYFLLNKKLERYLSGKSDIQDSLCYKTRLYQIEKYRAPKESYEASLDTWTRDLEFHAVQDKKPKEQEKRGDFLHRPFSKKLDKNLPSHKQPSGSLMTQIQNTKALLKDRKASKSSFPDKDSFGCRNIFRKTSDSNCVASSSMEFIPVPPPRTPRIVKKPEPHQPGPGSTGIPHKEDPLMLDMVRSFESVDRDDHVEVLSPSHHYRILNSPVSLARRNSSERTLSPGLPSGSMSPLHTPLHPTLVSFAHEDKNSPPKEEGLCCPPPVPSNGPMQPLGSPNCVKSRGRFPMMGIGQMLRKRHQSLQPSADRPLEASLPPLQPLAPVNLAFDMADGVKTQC

Study 1
Compound: CC[C@@]1(c2cccc(-c3c(F)cncc3OC)c2)C2=C(Nc3n[nH]cc31)[C@H](F)C(C)(C)CC2=O (single isomer, unassigned)
Concentration: 1 µM
Measurement: remaining binding
Dual specificity protein kinase TTK (TTK, Homo sapiens, UniProt P33981); kinase binding, KINOMEscan; relative to: DMSO control: 80%
5'-AMP-activated protein kinase catalytic subunit alpha-1 (PRKAA1, Homo sapiens, UniProt Q13131); kinase binding, KINOMEscan; relative to: DMSO control: 78%
Ribosomal protein S6 kinase alpha-5, C-terminal kinase domain (RPS6KA5, Homo sapiens, UniProt O75582); kinase binding, KINOMEscan; relative to: DMSO control: 98%
Hormonally up-regulated neu tumor-associated kinase (HUNK, Homo sapiens, UniProt P57058); binding, competition with immobilised ligand: 82%
Serine/threonine-protein kinase STK11 (STK11, Homo sapiens, UniProt Q15831); binding, competition with immobilised ligand: 100%
MAP kinase-interacting serine/threonine-protein kinase 2 (MKNK2, Homo sapiens, UniProt Q9HBH9); kinase binding, KINOMEscan; relative to: DMSO control: 47%
Serine/threonine-protein kinase WNK4 (WNK4, Homo sapiens, UniProt Q96J92); binding, competition with immobilised ligand: 89%
Serine/threonine-protein kinase SIK3 (SIK3, Homo sapiens, UniProt Q9Y2K2); kinase binding, KINOMEscan; relative to: DMSO control: 57%
High affinity nerve growth factor receptor (NTRK1, Homo sapiens, UniProt P04629); kinase binding, KINOMEscan; relative to: DMSO control: 64%
Tyrosine-protein kinase Tec (TEC, Homo sapiens, UniProt P42680); kinase binding, KINOMEscan; relative to: DMSO control: 88%

Study 2
Compound: CCN1/C(=C/C=C2\CCCC(/C=C/C3=[N+](CC)c4ccccc4C3(C)C)=C2NCCCCCCCCN2CCC(Nc3nc4ccccc4n3Cc3ccc(F)cc3)CC2)C(C)(C)c2ccccc21
Cell line: U-87 MG
Concentration: concentration not given
Relative to: DMSO
Measurement: log2 fold change
measured: PAIP2 mRNA: 0.881
measured: MTMR10 mRNA: 0.922
measured: CALM3 mRNA: -1.51
measured: ARL6IP1 mRNA: -1.05
measured: CDK17 mRNA: 0.809
measured: GOLGB1 mRNA: 0.914
measured: CDCP1 mRNA: -2.18
measured: ADGRG1 mRNA: -0.99
measured: DUSP10 mRNA: 1.41
measured: CENPC mRNA: -0.941
measured: ASIC1 mRNA: -2.34

Study 3
SMILES: Cc1ccc(O)c(C)c1-c1cnc2[nH]c(-c3cnc(N4CCC(CN5CCC(c6ccc(NC7CCC(=O)NC7=O)cc6F)CC5)CC4)nc3)cc2c1C#N (stereo not drawn)
Target: Membrane-associated tyrosine- and threonine-specific cdc2-inhibitory kinase (PKMYT1, Homo sapiens, UniProt Q99640)
UniProt Q99640, sequence (whole entry, looked up): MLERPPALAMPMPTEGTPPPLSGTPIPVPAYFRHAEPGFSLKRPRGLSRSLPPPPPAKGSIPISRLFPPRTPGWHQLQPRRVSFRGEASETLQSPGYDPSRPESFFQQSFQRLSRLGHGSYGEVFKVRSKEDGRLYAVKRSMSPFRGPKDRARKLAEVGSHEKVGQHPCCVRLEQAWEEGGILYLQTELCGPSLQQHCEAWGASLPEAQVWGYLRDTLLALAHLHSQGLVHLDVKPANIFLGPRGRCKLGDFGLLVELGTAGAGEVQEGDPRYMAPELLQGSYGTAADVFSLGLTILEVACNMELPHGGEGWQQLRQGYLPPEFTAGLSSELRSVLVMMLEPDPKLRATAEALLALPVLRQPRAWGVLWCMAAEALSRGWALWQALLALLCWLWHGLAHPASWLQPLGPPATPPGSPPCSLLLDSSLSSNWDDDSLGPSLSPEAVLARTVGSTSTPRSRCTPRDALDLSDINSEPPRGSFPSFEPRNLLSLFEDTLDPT
Measurement: inhibition
0.01235 µM: 74.2%
5.1e-05 µM: -3.84%
cell-free assay, inhibitor, TR-FRET; 0.1111 µM: 96.3%
cell-free assay, inhibitor, TR-FRET; 460 pM: 0.23%
cell-free assay, inhibitor, TR-FRET; 51 pM: -4.59%
1 µM: 97.9%
0.03704 µM: 90.5%

Study 4
Compound: C[C@@H]1CN(c2ccc(-c3cc(C(=O)NCCOCCOCCOCCOCCNC(=O)/C=C/c4[nH]cc(C(=O)N[C@@H](CC(N)=O)c5ccc(F)c(Cl)c5)c4-c4ccc(Cl)cc4F)ccc3F)cc2NC(=O)c2c[nH]c(=O)cc2C(F)(F)F)C[C@H](C)N1C
Observed: thermal unfolding
Method: differential scanning fluorimetry
Concentration: 5.5 µM
Reading: higher = more unfolded
Measurement: SYPRO Orange fluorescence
WDR5: WD repeat-containing protein 5 (WDR5, Homo sapiens, UniProt P61964)
DCAF1: DDB1- and CUL4-associated factor 1 (DCAF1, Homo sapiens, UniProt Q9Y4B6)
UniProt Q9Y4B6, sequence (whole entry, looked up): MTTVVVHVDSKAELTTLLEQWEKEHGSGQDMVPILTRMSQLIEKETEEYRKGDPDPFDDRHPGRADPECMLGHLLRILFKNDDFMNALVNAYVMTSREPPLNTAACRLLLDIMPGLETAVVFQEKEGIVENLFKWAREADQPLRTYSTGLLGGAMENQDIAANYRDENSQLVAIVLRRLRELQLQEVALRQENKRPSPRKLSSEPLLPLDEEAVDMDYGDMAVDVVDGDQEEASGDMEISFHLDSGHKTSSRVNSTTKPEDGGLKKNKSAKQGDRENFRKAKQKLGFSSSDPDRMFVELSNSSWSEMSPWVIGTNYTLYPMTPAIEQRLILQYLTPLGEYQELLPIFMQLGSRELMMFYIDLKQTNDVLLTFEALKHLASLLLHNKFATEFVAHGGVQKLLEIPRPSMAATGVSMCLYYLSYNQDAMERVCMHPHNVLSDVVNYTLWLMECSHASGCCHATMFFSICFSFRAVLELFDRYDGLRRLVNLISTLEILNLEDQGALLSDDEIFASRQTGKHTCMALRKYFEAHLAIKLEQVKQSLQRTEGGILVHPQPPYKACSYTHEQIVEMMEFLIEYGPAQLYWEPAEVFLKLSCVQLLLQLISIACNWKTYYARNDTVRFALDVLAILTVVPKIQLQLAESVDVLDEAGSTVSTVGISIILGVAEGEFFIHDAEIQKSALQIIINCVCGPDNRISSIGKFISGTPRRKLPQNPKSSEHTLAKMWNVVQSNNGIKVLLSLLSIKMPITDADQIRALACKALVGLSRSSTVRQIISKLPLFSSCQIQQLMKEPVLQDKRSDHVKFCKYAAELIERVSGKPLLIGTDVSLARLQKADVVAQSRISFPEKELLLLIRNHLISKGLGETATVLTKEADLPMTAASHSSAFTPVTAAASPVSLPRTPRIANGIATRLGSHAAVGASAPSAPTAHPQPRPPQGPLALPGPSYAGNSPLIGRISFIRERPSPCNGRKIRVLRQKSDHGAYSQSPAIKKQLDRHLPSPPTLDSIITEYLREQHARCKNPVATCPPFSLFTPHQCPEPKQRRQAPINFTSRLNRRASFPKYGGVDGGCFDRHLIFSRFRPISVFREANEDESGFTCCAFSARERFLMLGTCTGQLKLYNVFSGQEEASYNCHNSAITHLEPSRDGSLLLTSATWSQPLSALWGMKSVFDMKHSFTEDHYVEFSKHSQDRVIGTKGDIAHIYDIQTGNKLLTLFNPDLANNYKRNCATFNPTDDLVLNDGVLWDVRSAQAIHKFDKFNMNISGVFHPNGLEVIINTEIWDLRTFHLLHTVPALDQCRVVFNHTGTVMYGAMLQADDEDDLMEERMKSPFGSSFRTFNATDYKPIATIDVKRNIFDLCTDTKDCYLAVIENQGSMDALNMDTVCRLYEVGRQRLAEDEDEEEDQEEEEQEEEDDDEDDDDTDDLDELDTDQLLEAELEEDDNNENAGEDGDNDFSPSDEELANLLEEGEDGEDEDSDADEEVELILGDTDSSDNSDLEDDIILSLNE
WDR5; 30.4 °C: 12800 a.u.
WDR5; 68.01 °C: 14400 a.u.
WDR5; 64.61 °C: 14000 a.u.
WDR5; 92.61 °C: 47900 a.u.
DCAF1; 67.81 °C: 58300 a.u.
WDR5; 94.21 °C: 46100 a.u.
DCAF1; 50.6 °C: 15700 a.u.
WDR5; 35.8 °C: 13400 a.u.

Repeated from above (study 3):
cell-free assay, inhibitor, TR-FRET; 51 pM: -4.59%
1 µM: 97.9%
0.03704 µM: 90.5%
